Results collected from several papers.
Protocols differ between the studies behind these lines. Values joined by “and” are separate records of one study, mostly repeats; a detail may differ. ± gives the spread as reported.
rep main protease: Replicase polyprotein 1ab, main protease (rep, Severe acute respiratory syndrome coronavirus 2, UniProt P0DTD1)
Spike glycoprotein: Spike glycoprotein (Severe acute respiratory syndrome coronavirus 2, UniProt P0DTC2)

| Structure (SMILES) | target | test | test system | conditions | scale | endpoint | value |
| --- | --- | --- | --- | --- | --- | --- | --- |
| CC(C)C[C@@H](C=O)NC(=O)[C@H](CC(C)C)NC(=O)[C@H](CC(C)C)NC(=O)OCc1ccccc1 | rep main protease | reporter gene (mKate2), inhibitor | – | 20 µM | – | inhibition | -1.44% |
| O=C(O[C@@H]1O[C@@H]2COC(=O)c3cc(O)c(O)c(O)c3-c3c(cc(O)c(O)c3O)C(=O)O[C@H]([C@H]1O)[C@@H]2O)c1cc(O)c(O)c(O)c1 | Spike glycoprotein | binding, BLI | – | – | – | koff | 0.000435 s⁻¹ |
| O=[N+]([O-])c1ccc(OP(=O)(O)O)cc1 | Secreted effector protein (Yersinia pestis, UniProt O68720) | substrate | – | – | – | Km | 600 µM |
| CC1(C)C=Cc2cc3ccc(=O)oc3cc2O1 | rep main protease | reporter gene (mKate2), inhibitor | – | 20 µM | – | inhibition | -0.339% |
| NC1CCC2(CCCCC2)CC1 | Matrix protein 2 (Influenza A virus, UniProt P0DOF5) | channel activity, inhibitor | – | 100 µM, 2 min | – | remaining activity | 10.6 ± 0.7% |
| O=C(c1ccc(=O)[nH]c1)N1CCCC[C@H](C2CN(C(=O)c3cncc4[nH]ccc34)C2)C1 | rep main protease | enzyme activity, inhibitor | – | 5 µM | – | inhibition | 15.8% |
| CC(C)[C@H](NC(=O)c1ccc2ccccc2n1)C(=O)N[C@@H](CC(=O)O)C(=O)COc1c(F)cccc1F | rep main protease | reporter gene (mKate2), inhibitor | – | 20 µM | – | inhibition | 0.509% |
| O=C(NC[C@@H]1CC2(CCOCC2)CN1C(=O)C1=Cc2ccccc2OC1)c1cncnc1 | rep main protease | enzyme activity, inhibitor | – | 5 µM, run 1 | – | inhibition | 8.3% |
| CC(C)(Oc1ccc(C(=O)c2ccc(Cl)cc2)cc1)C(=O)O | rep main protease | reporter gene (mKate2), inhibitor | – | 20 µM | – | inhibition | -0.55% |
| CCc1c(C(=O)C(N)=O)c2c(OCC(=O)O)cccc2n1Cc1ccccc1 | Daboia russelii venom phospholipase A2 | enzyme activity, inhibitor | KL population | 0.01 µM, added: NOB substrate | reference: venom alone | remaining activity | 86.3% and 82.1% and 82.3% |
| Cc1cncc(C(=O)NC[C@H]2c3ccccc3CCN2C(=O)c2cccn3nnnc23)c1 | rep main protease | enzyme activity, inhibitor | – | 5 µM, run 2 | – | inhibition | 25.7% |
| Cc1c(-c2ccnn2C)cc(C(=O)NCc2ccc(S(C)(=O)=O)cn2)c(=O)n1-c1cccc(C(F)(F)F)c1 | rep main protease | reporter gene (mKate2), inhibitor | – | 20 µM | – | inhibition | -0.373% |
| CC(C)=CCC[C@](C)(O[C@@H]1O[C@H](CO)[C@@H](O)[C@H](O)[C@H]1O)[C@H]1CC[C@]2(C)[C@@H]1[C@H](O)C[C@@H]1[C@@]3(C)CC[C@H](O[C@@H]4O[C@H](CO)[C@@H](O)[C@H](O)[C@H]4O)C(C)(C)[C@@H]3CC[C@]12C | Spike glycoprotein | binding, BLI | – | – | – | koff | 0.505 s⁻¹ |
| COC(=O)c1nc(C(F)(F)F)n2c1CN(C(=O)C[C@H](N)Cc1cc(F)c(F)cc1F)CC2.O=P(O)(O)O | rep main protease | reporter gene (Gaussia luciferase), inhibitor | – | 20 µM | – | inhibition | 0.746% |
| O=C(Nc1cccc(C(=O)Nc2ccc(S(=O)(=O)O)c3cc(S(=O)(=O)O)cc(S(=O)(=O)O)c23)c1)Nc1cccc(C(=O)Nc2ccc(S(=O)(=O)O)c3cc(S(=O)(=O)O)cc(S(=O)(=O)O)c23)c1 | Replicase polyprotein 1ab, nsp14 N7-methyltransferase (rep, Severe acute respiratory syndrome coronavirus 2, UniProt P0DTD1) | N7-methyltransferase activity, inhibitor, Py-FLINT | – | – | – | Hill slope | 1.27 ± 0.73 |
| CC(C)=CCc1c(O)ccc(C(=O)/C=C/c2ccc(O)cc2)c1O | Spike glycoprotein | binding | – | – | – | koff | 0.249 s⁻¹ |
| Nc1ncnc2c1cnn2C1CCN(C(=O)c2ccc(S(=O)(=O)F)cc2)CC1 | Calmodulin-sensitive adenylate cyclase (cya, Bacillus anthracis, UniProt P40136) | – | – | – | – | kinact | 0.00433 s⁻¹ |
| O=C(c1ccc2cccnc2c1)N1CC[C@@H]([C@@H]2CCCN(C(=O)c3cccn4cnnc34)C2)C1 | rep main protease | enzyme activity, inhibitor | – | 5 µM, run 1 | – | inhibition | 12.1% |
| COc1ccc2c(O[C@@H]3C[C@H]4C(=O)N[C@]5(C(=O)NS(=O)(=O)C6CC6)C[C@H]5/C=C\CCCCN(C)C(=O)[C@@H]4C3)cc(-c3nc(C(C)C)cs3)nc2c1C | rep main protease | reporter gene (mKate2), inhibitor | – | 20 µM | – | inhibition | -1.19% |
| O=C1c2c(O)cccc2C([C@@H]2O[C@H](CO)[C@@H](O)[C@H](O)[C@H]2O)c2cc(CO)cc(O)c21 (stereo partly shown) | Spike glycoprotein | binding, BLI | – | – | – | kon | 427 M⁻¹ s⁻¹ |
| O=C(NC[C@H](NC(=O)c1cn[nH]c1-c1ccccn1)c1ccc2ccccc2c1)c1cn[nH]c1 | rep main protease | enzyme activity | – | 5 µM | – | inhibition | 11% |
| OCC1(O)COc2cc(O)ccc2-c2cc(O)c(O)cc2C1 (stereo not shown) | Spike glycoprotein | binding, biolayer interferometry | – | – | – | kon | 93.2 M⁻¹ s⁻¹ |
| Cc1cncc(CC(=O)N2CCC[C@@H]([C@@H]3CCN(C(=O)c4cnn5cccnc45)C3)C2)c1 | rep main protease | enzyme activity, inhibitor | – | 5 µM, run 1 | – | inhibition | 9.3% |
| COc1cc2c3cc1Oc1c(OC)c(OC)cc4c1[C@@H](Cc1ccc(O)c(c1)Oc1ccc(cc1)C[C@@H]3N(C)CC2)N(C)CC4 | Spike glycoprotein | binding, BLI | – | – | – | koff | 0.01 s⁻¹ |
| O=C(NC[C@@H]1Cc2ccccc2CN1C(=O)c1noc2c1CCCC2)c1cn[nH]c(=O)c1 | rep main protease | enzyme activity, inhibitor | – | 5 µM, mean of runs | – | inhibition | 12.1% |
| CC[C@H](C)[C@H](NC(=O)[C@@H]1CCCN1C(=O)[C@H](C)NC(=O)[C@@H]1CSSC[C@@H]2NC(=O)[C@H](CC(=O)O)NC(=O)[C@H](CCCNC(=N)N)NC(=O)[C@H](CCC(=O)O)NC(=O)[C@H](CCCNC(=N)N)NC(=O)CNC(=O)[C@H](CC(=O)O)NC(=O)[C@@H]3CSSC[C@H](NC(=O)[C@H](CCC(=O)O)NC(=O)[C@H](CC(C)C)NC(=O)CNC(=O)[C@H](C)NC(=O)[C@H](CSSC[C@H](NC(=O)[C@H](Cc4ccccc4)NC(=O)[C@@H](N)CO)C(=O)N[C@@H](CC(C)C)C(=O)N[C@@H](C(C)C)C(=O)N[C@@H](CCCCN)C(=O)N[C@@H](Cc4c[nH]c5ccccc45)C(=O)N[C@@H](CCCCN)C(=O)N[C@@H](CCC(N)=O)C(=O)N3)NC2=O)C(=O)N[C@@H](Cc2c[nH]c3ccccc23)C(=O)N[C@@H](CCCCN)C(=O)N[C@@H](CCCNC(=N)N)C(=O)N[C@@H](CO)C(=O)NCC(=O)N[C@@H](CC(N)=O)C(=O)N[C@@H](CCCCN)C(=O)N[C@@H](CO)C(=O)N[C@@H](CO)C(=O)N[C@@H](C(C)C)C(=O)N1)C(=O)N[C@H](C(=O)O)[C@@H](C)O | Acid-sensing ion channel 1 (ASIC1, Homo sapiens, UniProt P78348) | ion current, outside-out patch clamp | HEK-293T | 1 µM | reference: same patch before toxin | deactivation slowing | 9 ± 1.2 fold |
| O=C(NC[C@@H]1Cc2ccccc2CN1C(=O)[C@@H]1CCCS(=O)(=O)C1)c1cn[nH]c(=O)c1 | rep main protease | enzyme activity, inhibitor | – | 5 µM, run 1 | – | inhibition | 13.1% |
| O=C(NC[C@H]1CN(c2ccc(N3CCOCC3=O)cc2)C(=O)O1)c1ccc(Cl)s1 | rep main protease | reporter gene (Gaussia luciferase), inhibitor | – | 20 µM | – | inhibition | -0.00463% |

A few entries again:
| Structure (SMILES) | target | test | test system | conditions | scale | endpoint | value |
| --- | --- | --- | --- | --- | --- | --- | --- |
| O=C(c1ccc2cccnc2c1)N1CC[C@@H]([C@@H]2CCCN(C(=O)c3cccn4cnnc34)C2)C1 | rep main protease | enzyme activity, inhibitor | – | 5 µM, run 1 | – | inhibition | 12.1% |
| COc1ccc2c(O[C@@H]3C[C@H]4C(=O)N[C@]5(C(=O)NS(=O)(=O)C6CC6)C[C@H]5/C=C\CCCCN(C)C(=O)[C@@H]4C3)cc(-c3nc(C(C)C)cs3)nc2c1C | rep main protease | reporter gene (mKate2), inhibitor | – | 20 µM | – | inhibition | -1.19% |
| O=C1c2c(O)cccc2C([C@@H]2O[C@H](CO)[C@@H](O)[C@H](O)[C@H]2O)c2cc(CO)cc(O)c21 (stereo partly shown) | Spike glycoprotein | binding, BLI | – | – | – | kon | 427 M⁻¹ s⁻¹ |
| O=C(NC[C@H](NC(=O)c1cn[nH]c1-c1ccccn1)c1ccc2ccccc2c1)c1cn[nH]c1 | rep main protease | enzyme activity | – | 5 µM | – | inhibition | 11% |
